Measurements from different studies.
Every numbered part comes from another study and shows a few of its results, in no order. Substitutions count along the parent as printed.

Sample 1
Target: ABI1, truncated, D143A, DHFR fusion (Arabidopsis thaliana)
Technique: DHFR PCA, deep sequencing
Matrix: yeast
Setting: methotrexate growth selection, single substitutions
Added: (+)-ABA 0.39 µM
Reference: wild-type fitted maximum
Direction: higher = stronger binding
Measurement: relative binding score
Starting sequence: PYL1, truncated, DHFR fusion (Arabidopsis thaliana); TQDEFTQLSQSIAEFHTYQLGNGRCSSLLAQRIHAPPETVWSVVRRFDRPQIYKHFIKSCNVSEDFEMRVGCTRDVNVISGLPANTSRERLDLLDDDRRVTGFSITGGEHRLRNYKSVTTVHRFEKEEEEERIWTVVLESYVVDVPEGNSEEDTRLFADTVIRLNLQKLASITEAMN; partner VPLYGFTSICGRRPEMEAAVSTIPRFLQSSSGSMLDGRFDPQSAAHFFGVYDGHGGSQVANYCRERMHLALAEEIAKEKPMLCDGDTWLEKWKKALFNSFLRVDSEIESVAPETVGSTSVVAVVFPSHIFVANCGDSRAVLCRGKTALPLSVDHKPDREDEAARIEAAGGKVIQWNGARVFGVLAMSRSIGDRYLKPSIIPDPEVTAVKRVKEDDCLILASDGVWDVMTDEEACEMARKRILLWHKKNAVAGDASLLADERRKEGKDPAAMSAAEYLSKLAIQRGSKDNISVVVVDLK
T101P: -1.8%
G21S: 49.6%
E127Y: 32.5%
I105S: -5.81%
L138Q: -7.12%
L93A: 14.7%
V143Y: -16.4%
T17L: -4.2%
R69L: 9.15%
I105W: -13.8%
G148A: 1.56%
N177T: 57.1%
D75C: 44.6%
L156G: -3.81%
E128P: 31.3%
E129A: 53.8%
S150W: -4.09%

Sample 2
Target: Ras GTPase-activating protein-binding protein 1, C-terminal RGG region (G3BP1, Homo sapiens, UniProt Q13283)
Chain of UniProt Q13283 (whole entry, looked up): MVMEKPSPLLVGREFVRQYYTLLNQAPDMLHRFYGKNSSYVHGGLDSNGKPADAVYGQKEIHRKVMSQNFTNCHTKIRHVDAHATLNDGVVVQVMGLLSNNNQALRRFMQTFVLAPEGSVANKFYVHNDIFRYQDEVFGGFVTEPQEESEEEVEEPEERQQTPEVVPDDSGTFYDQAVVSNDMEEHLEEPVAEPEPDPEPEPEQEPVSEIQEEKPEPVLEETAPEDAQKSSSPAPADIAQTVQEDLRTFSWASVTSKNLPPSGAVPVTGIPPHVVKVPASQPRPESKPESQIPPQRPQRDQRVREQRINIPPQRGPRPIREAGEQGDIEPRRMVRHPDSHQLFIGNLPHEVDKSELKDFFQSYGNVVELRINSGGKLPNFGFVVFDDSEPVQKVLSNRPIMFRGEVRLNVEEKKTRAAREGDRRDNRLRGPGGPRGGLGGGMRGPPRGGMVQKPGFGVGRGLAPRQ
Technique: RNA Bind-n-Seq
Molecule type: RNA
Matrix: in vitro
Concentration: 1 µM
Setting: whole 134-nt RNA, ends assumed
Added: 150 mM KCl
Reference: input library
Direction: higher = stronger binding
Measurement: log2 enrichment
Constant ends, left off below: GGGAGUUCUACAGUCCGACGAUC … UGGAAUUCUCGGGUGUCAAGG
UAACUUUAGAGGAGGAUCUGAUGGAUAUGGCAGUGGACGUGGAUUUGGGGAUCGCUAUAAUGGGUAUGGAGGAGGACCUGGAGGUGGCAA: -0.297
ACCAUGCAGGUGGGCAUCUUUGGGAAGUGGGGCAAGGGGGGGAUAGAAAGGGGGGUAACACUUUGGGAACAGGUGGUCCCAGGUCGUUUC: -1.11
UACCUGAUCAAUGACAGAGCCUUCUGAGGACAUUCCAAGACAGUAUACAGUCCUGUGGUCUCCUUGGAAAUCCGUCUAGUUAACAUUUCA: -2.22
AAGUCCUGUGCUACACAUCGUAUGUACCGAAUCGGAAAAAAAGGAAAAAGGAAAGGAAAGUAUUAUGUUACGCCGUUCGGAUCUGCACUU: -2.18
GCAGGAAGUAAAAACAAAUGGAAAUGCUUCGGAUAGUGGCAGGGGUGGGGGUUGCUGAGGAAAGGGUGGGAUGGGAGUGGGUAAAGAGUU: 2.11
CAAGUCCUGUGCUACACAUCGUAUGUACCGAAUCGGGUUUUGGUUUUGGGUUUUGGAAAGUAUUAUGUUACGCCGUUCGGAUCUGCACUU: -1.78
UCAAGUCCUGUGCUACACAUCGUAUGUACCGAAUCGGAGGAAAGGAAAAAAAGGAAAGUAUUAUGUUACGCCGUUCGGAUCUGCACUUCC: -1.42
GCAGGAAGUAAAAACAAAUGGAAAUGCUUCGGAUAGGGGCAGGGGUGGGGGUUGCUAAGGAAAGGGUGGGAUGGGAGUGGGUAAAGAGUU: 0.892
UUCUCCUGCCCCGAAGCUCGCUGUGCGUGUGCGUGUGUGUGUCCCUCCGCCAACGCCGCCACCUCAGCCCGGCAAAUGAACUCCGUCCGA: 1.72

Sample 3
Target: Histone acetyltransferase KAT6A, winged helix 2, GST fusion (KAT6A, Homo sapiens, UniProt Q92794, residues 85-181)
Technique: protein binding microarray
Molecule type: double-stranded DNA, one strand shown
Matrix: in vitro
Concentration: not given
Setting: 8-mer, flanks averaged, mean of 2 arrays, mostly near background
Reference: not given
Direction: higher = stronger binding
Measurement: E-score
Target sequence (chain): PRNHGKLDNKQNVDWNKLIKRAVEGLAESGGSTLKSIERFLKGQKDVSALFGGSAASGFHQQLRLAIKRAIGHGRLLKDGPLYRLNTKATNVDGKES
CATATACG: -0.111
GTATTCGA: -0.188
ATTTACAA: -0.01
AATAGACG: -0.0539
CAAACCAC: -0.0216
CCTGTCTA: -0.0808
ATAGGACG: -0.247
GTAGCAAC: 0.0353
CGCCTAAC: -0.0815
GGGCGCAC: 0.0367
CAACCGAC: 0.241
CACACGTA: -0.322
ATTGTGGA: -0.102
GACCATCA: -0.165
CAGCCGTC: 0.133
AACTACGG: -0.112
CGAGCGGA: 0.168
ACTTCCCG: 0.0633
TAATTGGA: 0.0814
ATGACTGA: -0.187
ACTAGTAC: -0.0833
ATGTGTGG: -0.0289
AGATTCTC: 0.00961
ACAGGCTA: -0.148
TACCGATA: 0.00265

Sample 4
Target: CCNB1, cyclin fold, Cln2 fusion (human)
Technique: yeast growth competition, sequencing
Matrix: yeast
Setting: strong parent motif
Reference: not given
Direction: higher = stronger binding
Measurement: normalised enrichment score
Starting sequence: RBL2 docking peptide (human); STTRRRLFVENDS
STTRRRLFVEWDS [N11W]: 1.21
STTRRWLFVENDS [R6W]: 0.539
STTRRRLFVENDM [S13M]: 0.626
SWTRRRLFVENDS [T2W]: 0.314
GTTRRRLFVENDS [S1G]: 1.22
STTRRQLFVENDS [R6Q]: 1.48
STTRRRLFVENPS [D12P]: 0.884
STTRRREFVENDS [L7E]: 0.658
STTRRRLFVENDG [S13G]: 1.43
HTTRRRLFVENDS [S1H]: 1.07
STKRRRLFVENDS [T3K]: 0.924
STTRRRLFVENCS [D12C]: -0.0545
STTRRRLLVENDS [F8L]: 0.489
STTRRFLFVENDS [R6F]: 1.53
STTRPRLFVENDS [R5P]: 0.795
STCRRRLFVENDS [T3C]: 1.67
STTRRRLFPENDS [V9P]: 0.0778
STTRRRLFCENDS [V9C]: 1.65
